# Measurements of several laboratories.
# ± marks the error that the study gave.
SMILES,cell line,assay,conditions,how to read,quantity,value
COC(=O)C1=CO[C@@H](OC(C)=O)[C@@H]2C(Cn3cc(-c4ccc(OC)cc4)nn3)=CC[C@H]12,SK-N-SH,"neuroprotection, MTT","0.3 µM, 24 h, together with: 250 µM H2O2",,viability,60.1 ± 1%
CC(C)C[C@@H](NC(=O)CCNc1ccc([N+](=O)[O-])c2nonc12)C(=O)N[C@H](CC(C)C)C(=O)N[C@H](CC(C)C)C(=O)N[C@H](CC(C)C)C(=O)N[C@H](Cc1ccc(OP(=O)(O)O)cc1)C(=O)O,A2780cis,MTT,"200 µM, 24 h",,viability,> 60%
"C=C(C)CC(OC)C(O)C(=O)NC(OC)C1CC(OC(C)=O)C(C)(C)C(CC(O)C(C)C2Cc3c(C)c(O)cc(O)c3C(=O)O2)O1 (single isomer, unassigned; (+))",IMR-90,cell growth or viability,,,IC50,27 nM
CC[C@H](C)[C@@H]1NC(=O)[C@H](Cc2cn(CCc3c(C)[nH]c4cc(Cl)cc(Cl)c34)nn2)NC(=O)[C@@H](CC(N)=O)NC(=O)[C@H](CCCNC(=N)N)NC(=O)[C@H](Cc2ccccc2)NC(=O)[C@@H](CC(C)C)NC(=O)[C@H](C)NC(=O)c2cc3cc(c2)C(=O)NC[C@@H](C(=O)N[C@@H](CCCCN)C(N)=O)NC(=O)[C@H](CCCNC(=N)N)NC(=O)[C@H](CCCNC(=N)N)NC(=O)[C@H](CCCNC(=N)N)NC(=O)[C@H](CCCNC(=N)N)NC(=O)[C@H](Cc2ccc4ccccc4c2)NC(=O)[C@H](Cc2ccccc2)NC(=O)[C@H](CCCCNC3=O)NC(=O)[C@H](CC(=O)O)NC1=O,H1299,annexin V/propidium iodide flow cytometry,"10 µM, 12 h",reference: cells,dead cells,~5%
COC(=O)C1=CO[C@@H](O)[C@@H]2C(Cn3cc(CON4C(=O)c5ccccc5C4=O)nn3)=CC[C@H]12,SK-N-SH,"neuroprotection, MTT","0.6 µM, 24 h, together with: 250 µM H2O2",,viability,77.2 ± 1.8%
CC(C)C[C@H](NC(=O)[C@H](CO)NC(=O)[C@H](Cc1c[nH]c2ccccc12)NC(=O)[C@H](Cc1ccccc1)NC(=O)[C@H](Cc1ccccc1)NC(=O)[C@H](CCC(N)=O)NC(=O)[C@@H]1CCCN1C(=O)[C@H](CCCNC(=N)N)NC(=O)[C@H](CCCNC(=N)N)NC(=O)[C@H](CCCNC(=N)N)NC(=O)[C@H](CCC(N)=O)NC(=O)[C@H](CCCNC(=N)N)NC(=O)[C@H](CCCNC(=N)N)NC(=O)[C@H](CCCCN)NC(=O)[C@H](CCCCN)NC(=O)[C@H](CCCNC(=N)N)NC(=O)CNC(=O)[C@@H](N)Cc1ccc(O)cc1)C(=O)N[C@@H](CS)C(=O)N[C@H](C(=O)N[C@@H](C)C(=O)O)[C@@H](C)O,Jurkat,trypan blue exclusion,"7.5 µM, 17 h, together with: zVAD-fmk 20 µM 30 min pretreatment",,viable cells,11%
COc1cc(C)c(OC)c2c1OCO2,SK-OV-3,"cell growth or viability, MTT",72 h,,GI50,> 250000 nM
O=c1c(NCCc2ccc(Br)cc2)c(NC2CCN(Cc3ccccc3)CC2)c1=O,SH-SY5Y,"neuroprotection, MTT","12.5 µM, 24 h pretreatment, together with: H2O2 650 µM for 4 h",,cell survival,46 ± 1.59%
COc1ccc2cc(Nc3c4c(nc5ccccc35)CCCC4)ccc2c1,SH-SY5Y,MTT,"50 µM, 1 h pretreatment, 10% FBS, together with: H2O2",,viability,31.6 ± 4.02%
O=C(C[P+]([Au-][Cl])(c1ccccc1)c1ccccc1)[O][Ti+2][O]C(=O)C[P+]([Au-][Cl])(c1ccccc1)c1ccccc1.c1cc[cH-]c1.c1cc[cH-]c1,CAKI-1 cells,ELISA,"10 µM, 6 h",,IL-6 secretion,decreased
COC(=O)C1=CO[C@@H](O)[C@@H]2C(Cn3cc(-c4ccc(OC)cc4)nn3)=CC[C@H]12,SK-N-SH,"neuroprotection, MTT","0.3 µM, 24 h, together with: 250 µM H2O2",,viability,75.2 ± 2.3%
CC(C)CC(O)(CC(C)C)c1cn(C(=O)N2CCCC2)nn1,mouse T-cells,"N-terminal labeled proteins, N-terminal enrichment proteomics, measured: UQCRH","1 nM, 6 h",reference: DMSO,SILAC ratio,2.27 ± 0.06
COC(=O)C1=CO[C@@H](OC(C)=O)[C@@H]2C(Cn3cc(CCO)nn3)=CC[C@H]12,SK-N-SH,"neuroprotection, MTT","0.6 µM, 24 h, together with: 250 µM H2O2",,viability,65.3 ± 0.29%
C[OH+][Cu-2]12[O]C(c3cn(-c4ccccc4)nc3-c3ccc(F)cc3)=N[N+]1=C(C)c1c(cc(C)oc1=O)[O]2 (centres unmarked),A549 and Vero cells,"cell viability, MTT",,reference: IC50 Vero over IC50 A549,selectivity index,5.7
